Experimental data collected from several papers.
Protocols differ between the studies behind these lines.
Target: Dual specificity mitogen-activated protein kinase kinase 1 (MAP2K1, Homo sapiens, UniProt Q02750)
Sequence of UniProt Q02750 (whole entry, looked up): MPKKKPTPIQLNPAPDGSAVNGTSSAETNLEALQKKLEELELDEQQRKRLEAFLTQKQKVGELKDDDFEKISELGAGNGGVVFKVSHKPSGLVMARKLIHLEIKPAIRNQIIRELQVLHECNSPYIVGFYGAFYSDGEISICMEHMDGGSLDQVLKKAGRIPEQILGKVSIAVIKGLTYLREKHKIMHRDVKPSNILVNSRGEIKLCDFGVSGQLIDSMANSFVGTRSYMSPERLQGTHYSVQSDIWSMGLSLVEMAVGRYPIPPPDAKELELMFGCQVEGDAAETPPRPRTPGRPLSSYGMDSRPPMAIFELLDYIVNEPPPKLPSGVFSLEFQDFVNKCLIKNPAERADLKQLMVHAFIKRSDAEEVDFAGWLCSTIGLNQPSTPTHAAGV

| SMILES | assay | test system | conditions | how to read | measurement | result |
| --- | --- | --- | --- | --- | --- | --- |
| O=C1NC(=O)c2c1c1cc(F)c[n+]3c1c1c2c2cc(O)ccc2[n]1[Ru-4]312([N]=C=S)[S+]3CC[S+]1CC[S+]2CC3 (stereo not shown) | enzyme activity | – | 100 nM, human enzyme, with: 10 µM ATP | reference: untreated | remaining activity | 108% |
| C=CC(=O)Nc1cc(-c2nn(C3CCC(N4CCN(C(C)=O)CC4)CC3)c3ncnc(N)c23)ccc1Oc1ccccc1 (stereo not shown) | inhibitor, KiNativ profiling | biochemical | 2 µM | – | inhibition | 8.7% |
| Nc1ccc(/C=C/C(=O)N2CCc3c(oc4c(-c5ccc(F)cc5)cc(-c5ccc(C(=O)N6CCC(F)(F)CC6)cn5)cc34)C2)cn1 | binding, competition with immobilised ligand | – | 1 µM | – | remaining binding | 79% |
| CCOC(=O)[C@@H]1Cc2c(cc([N+](=O)[O-])cc2[N+](=O)[O-])[C@H](O)[C@]12C(=O)Nc1ccc(Br)cc12 | binding, competition with immobilised ligand | – | 0.1 µM | – | remaining binding | 55% |
| CN(/N=C/c1ccccc1C(=O)O)c1nc(-c2ccccc2Cl)cs1 | enzyme activity, inhibitor | – | 1 µM | – | inhibition | -6.19% |
| CN(C)[C@H]1C[C@@]23CC[C@@]4(O2)C(=CC[C@]2(C)[C@@H](c5ccc6ccncc6c5)CC[C@H]24)C=C3[C@@H](O)[C@@H]1O | ATP probe labelling, inhibitor, KiNativ profiling | – | 1 µM | – | inhibition | -23.5% |
| CC(C)[C@H]1NC(=O)C[C@H]2/C=C/CCSSC[C@@H](NC1=O)C(=O)N[C@H](Cc1cccc3ccccc13)C(=O)NCC(=O)O2 | – | – | 10 µM | – | inhibition | -1.9% |
| CS(C)(=O)=Nc1ccc(-c2ccc(-c3nc4cc(O[C@@H]5CO[C@H]6[C@@H]5OC[C@H]6O)[nH]c4cc3F)cc2)cc1 | enzyme activity, inhibitor | – | 10 µM | – | inhibition | -3% |
| C[C@H](NCc1ccc(-c2ccc(C(F)(F)F)cc2)cc1)C(N)=O | cell-free assay, competition with immobilised ligand | – | 1 µM | – | inhibition | 9% |
| O=C(N[C@@H]1c2ccccc2C[C@H]1N1CCCC1)c1ccc(-c2ccnc3[nH]ccc23)nc1 | binding, competition with immobilised ligand | – | 3 µM | – | remaining binding | 49% |

For quick reference, copied from above:
| SMILES | assay | test system | conditions | how to read | measurement | result |
| --- | --- | --- | --- | --- | --- | --- |
| O=C(N[C@@H]1c2ccccc2C[C@H]1N1CCCC1)c1ccc(-c2ccnc3[nH]ccc23)nc1 | binding, competition with immobilised ligand | – | 3 µM | – | remaining binding | 49% |
